Results gathered from unrelated publications.
Every numbered part comes from another study and shows a few of its results, in no order. Values joined by “and” are separate records of one study, mostly repeats; a detail may differ.
Sequence of UniProt Q9H2K8 (whole entry, looked up): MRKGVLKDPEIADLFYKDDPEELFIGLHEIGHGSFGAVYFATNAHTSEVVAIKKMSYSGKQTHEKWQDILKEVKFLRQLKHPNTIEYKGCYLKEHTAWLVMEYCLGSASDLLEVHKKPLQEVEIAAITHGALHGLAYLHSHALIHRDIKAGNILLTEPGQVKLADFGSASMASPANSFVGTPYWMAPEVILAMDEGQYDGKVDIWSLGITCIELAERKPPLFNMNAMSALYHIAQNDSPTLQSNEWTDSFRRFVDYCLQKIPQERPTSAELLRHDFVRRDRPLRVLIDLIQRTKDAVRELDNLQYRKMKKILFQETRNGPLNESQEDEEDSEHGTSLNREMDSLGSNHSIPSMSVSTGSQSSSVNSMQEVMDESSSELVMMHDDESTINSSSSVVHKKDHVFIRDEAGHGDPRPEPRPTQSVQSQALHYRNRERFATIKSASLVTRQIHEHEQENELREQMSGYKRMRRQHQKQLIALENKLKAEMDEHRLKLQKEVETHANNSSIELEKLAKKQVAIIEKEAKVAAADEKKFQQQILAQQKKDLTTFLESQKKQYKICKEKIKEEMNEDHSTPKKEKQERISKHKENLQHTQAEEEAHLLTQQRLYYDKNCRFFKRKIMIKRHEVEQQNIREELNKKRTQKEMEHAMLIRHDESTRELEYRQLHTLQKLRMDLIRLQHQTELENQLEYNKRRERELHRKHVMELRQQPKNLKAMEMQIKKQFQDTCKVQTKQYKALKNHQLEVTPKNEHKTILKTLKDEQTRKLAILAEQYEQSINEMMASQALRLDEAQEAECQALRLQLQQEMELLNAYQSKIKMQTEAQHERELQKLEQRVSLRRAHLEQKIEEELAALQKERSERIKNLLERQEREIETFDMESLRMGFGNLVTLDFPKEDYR
Sequence of UniProt P09769 (whole entry, looked up): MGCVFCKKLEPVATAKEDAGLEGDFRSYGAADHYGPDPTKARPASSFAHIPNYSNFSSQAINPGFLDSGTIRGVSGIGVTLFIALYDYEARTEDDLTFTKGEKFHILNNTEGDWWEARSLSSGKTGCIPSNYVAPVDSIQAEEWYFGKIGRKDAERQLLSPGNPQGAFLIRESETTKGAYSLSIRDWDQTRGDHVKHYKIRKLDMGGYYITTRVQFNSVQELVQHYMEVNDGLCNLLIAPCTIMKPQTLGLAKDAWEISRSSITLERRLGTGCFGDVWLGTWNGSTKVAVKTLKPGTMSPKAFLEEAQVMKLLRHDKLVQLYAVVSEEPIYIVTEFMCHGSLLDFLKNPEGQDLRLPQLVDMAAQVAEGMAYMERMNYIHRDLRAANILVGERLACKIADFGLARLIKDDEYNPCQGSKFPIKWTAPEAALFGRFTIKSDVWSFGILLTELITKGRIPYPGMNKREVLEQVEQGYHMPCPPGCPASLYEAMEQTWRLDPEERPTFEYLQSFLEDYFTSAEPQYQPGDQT
Sequence of UniProt P51817 (whole entry, looked up): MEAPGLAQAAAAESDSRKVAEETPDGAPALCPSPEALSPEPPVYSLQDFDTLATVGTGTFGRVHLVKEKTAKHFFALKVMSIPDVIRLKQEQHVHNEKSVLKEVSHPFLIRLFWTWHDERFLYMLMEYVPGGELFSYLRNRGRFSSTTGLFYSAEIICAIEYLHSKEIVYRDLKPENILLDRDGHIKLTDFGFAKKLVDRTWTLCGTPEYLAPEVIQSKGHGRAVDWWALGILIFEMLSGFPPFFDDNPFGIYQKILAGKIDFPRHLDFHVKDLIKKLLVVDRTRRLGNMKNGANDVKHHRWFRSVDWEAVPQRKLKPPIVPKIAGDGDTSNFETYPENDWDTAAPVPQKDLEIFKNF
Sequence of UniProt Q9BXA7 (whole entry, looked up): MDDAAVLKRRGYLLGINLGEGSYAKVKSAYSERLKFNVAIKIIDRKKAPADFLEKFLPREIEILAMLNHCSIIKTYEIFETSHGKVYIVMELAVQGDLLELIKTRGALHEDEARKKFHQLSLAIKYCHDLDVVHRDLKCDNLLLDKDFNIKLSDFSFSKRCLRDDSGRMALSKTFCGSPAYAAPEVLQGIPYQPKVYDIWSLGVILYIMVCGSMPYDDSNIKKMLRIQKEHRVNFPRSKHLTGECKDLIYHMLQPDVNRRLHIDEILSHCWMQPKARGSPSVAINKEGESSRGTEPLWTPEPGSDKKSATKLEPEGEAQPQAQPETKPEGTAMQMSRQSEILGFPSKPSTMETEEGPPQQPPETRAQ
Sequence of UniProt P20794 (whole entry, looked up): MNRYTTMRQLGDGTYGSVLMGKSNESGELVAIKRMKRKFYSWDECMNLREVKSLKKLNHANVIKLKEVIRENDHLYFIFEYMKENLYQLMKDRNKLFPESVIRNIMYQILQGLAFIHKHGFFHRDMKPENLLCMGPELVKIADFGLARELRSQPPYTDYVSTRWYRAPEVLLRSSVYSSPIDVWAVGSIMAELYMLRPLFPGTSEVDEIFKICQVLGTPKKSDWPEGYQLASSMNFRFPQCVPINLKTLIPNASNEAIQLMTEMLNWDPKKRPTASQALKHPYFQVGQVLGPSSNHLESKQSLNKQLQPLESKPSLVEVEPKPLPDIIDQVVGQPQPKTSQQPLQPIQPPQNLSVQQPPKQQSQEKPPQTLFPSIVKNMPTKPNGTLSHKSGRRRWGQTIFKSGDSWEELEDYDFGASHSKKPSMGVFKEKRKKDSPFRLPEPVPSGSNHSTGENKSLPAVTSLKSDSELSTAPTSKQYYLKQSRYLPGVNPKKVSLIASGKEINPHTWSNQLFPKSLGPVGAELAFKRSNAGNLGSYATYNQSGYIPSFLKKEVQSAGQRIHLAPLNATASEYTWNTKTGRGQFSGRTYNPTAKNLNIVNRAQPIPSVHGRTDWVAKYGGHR
Sequence of UniProt Q13882 (whole entry, looked up): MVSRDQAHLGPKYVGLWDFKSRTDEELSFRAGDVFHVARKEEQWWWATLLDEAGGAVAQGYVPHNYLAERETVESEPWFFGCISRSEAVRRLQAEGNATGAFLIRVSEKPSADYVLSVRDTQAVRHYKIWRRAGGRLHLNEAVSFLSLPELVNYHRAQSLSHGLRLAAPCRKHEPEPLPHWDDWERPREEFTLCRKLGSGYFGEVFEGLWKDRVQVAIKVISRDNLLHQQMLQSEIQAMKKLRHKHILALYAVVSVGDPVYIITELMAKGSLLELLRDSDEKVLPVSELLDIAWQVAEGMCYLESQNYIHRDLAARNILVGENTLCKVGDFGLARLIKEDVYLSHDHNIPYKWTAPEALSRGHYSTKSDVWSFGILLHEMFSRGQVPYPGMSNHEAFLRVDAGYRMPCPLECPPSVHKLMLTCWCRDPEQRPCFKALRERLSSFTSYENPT
Sequence of UniProt Q00526 (whole entry, looked up): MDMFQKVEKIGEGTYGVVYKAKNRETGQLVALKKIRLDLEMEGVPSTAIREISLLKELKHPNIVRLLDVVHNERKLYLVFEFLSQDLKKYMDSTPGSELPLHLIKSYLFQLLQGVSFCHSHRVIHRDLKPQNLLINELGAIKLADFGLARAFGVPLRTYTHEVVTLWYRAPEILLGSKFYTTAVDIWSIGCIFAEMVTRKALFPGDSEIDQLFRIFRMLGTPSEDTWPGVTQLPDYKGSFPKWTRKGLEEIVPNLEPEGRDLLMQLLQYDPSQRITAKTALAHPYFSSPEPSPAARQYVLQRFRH
Sequence of UniProt Q96GD4 (whole entry, looked up): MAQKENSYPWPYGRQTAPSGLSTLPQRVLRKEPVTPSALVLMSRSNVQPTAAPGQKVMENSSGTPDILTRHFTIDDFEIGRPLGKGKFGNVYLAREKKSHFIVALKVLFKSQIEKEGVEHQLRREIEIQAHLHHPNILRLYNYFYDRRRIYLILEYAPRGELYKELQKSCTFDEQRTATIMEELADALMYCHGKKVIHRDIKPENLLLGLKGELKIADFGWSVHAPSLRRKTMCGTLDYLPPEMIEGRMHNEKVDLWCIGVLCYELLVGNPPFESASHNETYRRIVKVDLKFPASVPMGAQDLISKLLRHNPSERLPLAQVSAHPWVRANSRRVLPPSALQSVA

Block 1 — cell line: normal-adjacent epithelial organoid; observed: cell viability; method: CellTiter-Glo; species: human; matrix: patient-derived organoid; tested at: 1 µM; reference: DMSO
SMILES | viability
Cc1cc(-n2nc(Cc3cc(F)cc(C(F)(F)F)c3)nc2C)ccc1C(N)=O | 84%
O=C1CCc2cc(Nc3cc(OC4CCOCC4)c([N+](=O)[O-])cc3Cl)ccc2N1 | 96.8%
CC(C)(O)c1cncc(-c2nc3ccc(F)cc3n2C2CC2)c1 | 126%
N#CC1(c2ccccn2)CCN(Cc2cc(C(=O)O)c(=O)n3ccccc23)CC1 | 109%
O=C(O)c1ccc(-c2c[nH]c3ncc(-c4ccccc4)cc23)cc1C1CCCC1 | 109%
COc1cc(-c2cn(C3CCc4ccccc4N(CC(F)(F)F)C3=O)nn2)ccc1-n1ccc(C)n1 (stereo not shown) | 98.1% and 99.3%
CN(C)C(=O)Cn1cc(-c2ccc(-c3cncc4ccccc34)cc2)cn1 | 83.7%
CN1CCN(C(=O)C(C)(C)c2ccc(C(=O)Nc3cn4cc(-c5cc(C(C)(C)C)cc(C(C)(C)C)c5)ccc4n3)cc2)CC1 | 86.8%
N#CC1(c2ccccn2)CCN(Cc2cc(C(=O)N3CCCC3)c(=O)n3ccccc23)CC1 | 136%
O=C1c2ccc(Nc3ccc(F)cc3F)cc2CCc2ccc(OC[C@H](O)CO)cc21 | 118%
Nc1nc(NCc2ccccc2)nc(-c2cccc(CO)c2)n1 | 102%
O=C(NNS(=O)(=O)c1ccccc1)c1cc(-c2ccnnc2)ccc1F | 134%
Nc1nc(NCc2ccccc2)nc(-c2ccccc2CO)n1 | 117%
Cc1cn(-c2cc(NC(=O)c3ccc4c(c3)CN(c3cncnc3)C[C@@H]4C)cc(C(F)(F)F)c2)cn1 | 54.9% and 71.6%
Cn1cncc1[C@@](O)(COc1ccc(C#N)cc1-c1ccc(OC(F)(F)F)cc1)c1ccc(C#N)cc1 | 77.3% and 81%
CN(C)[C@@H]1CCN(c2cc(-c3ccccc3)nc3ccnn23)C1 | 118%

Block 2 — SMILES: O=C(Nc1ccc(Cl)cc1)c1ccccc1NCc1ccncc1; observed: enzyme activity; mode: inhibitor; tested at: 0.5 µM; reference: control
target | remaining activity
Insulin receptor (INSR, Homo sapiens, UniProt P06213) | 88%
FGR (Homo sapiens, UniProt P09769) | 83.8%
STK25 (Homo sapiens, UniProt O00506) | 91.6%
MARK3 (Homo sapiens, UniProt P27448) | 93.1%
SRC (Homo sapiens, UniProt P12931) | 88.8%
HIPK1 (Homo sapiens, UniProt Q86Z02) | 92.7%
PRKX (Homo sapiens, UniProt P51817) | 90.5%
FLT4 (Homo sapiens, UniProt P35916) | 44.8%
MATK (Homo sapiens, UniProt P42679) | 99.3%
ALK (Homo sapiens, UniProt Q9UM73) | 103%
NLK (Homo sapiens, UniProt Q9UBE8) | 87.2%
FER (Homo sapiens, UniProt P16591) | 80.4%
NEK11 (Homo sapiens, UniProt Q8NG66) | 104%
TAOK3 (Homo sapiens, UniProt Q9H2K8) | 94.1%
PKN1 (Homo sapiens, UniProt Q16512) | 95.2%
ITK (Homo sapiens, UniProt Q08881) | 94.1%
Cyclin-dependent kinase 3, with cyclin E (CDK3, Homo sapiens, UniProt Q00526) | 87.4%
LIM domain kinase 1 (LIMK1, Homo sapiens, UniProt P53667) | 83.4%
FYN (Homo sapiens, UniProt P06241) | 97%
PASK (Homo sapiens, UniProt Q96RG2) | 97.1%
CDC42BPA (Homo sapiens, UniProt Q5VT25) | 90.5%
AKT1 (Homo sapiens, UniProt P31749) | 97.6%

Block 3 — tested at: 1 µM
Compound: CN1CCN(C(=O)c2ccc(NC(=O)Nc3ccc(N(C)c4ccnc(Nc5ccc(CS(C)(=O)=O)cc5)n4)cc3)cc2)CC1
target | assay | setting | how to read | remaining binding [%]
DYRK1B (Homo sapiens, UniProt Q9Y463) | competitive binding panel | – | reference: vehicle | 91
EPHA6 (Homo sapiens, UniProt Q9UF33) | competitive binding panel | – | reference: vehicle | 76
PIK3C2B (Homo sapiens, UniProt O00750) | competitive binding panel | – | reference: vehicle | 100
TSSK1B (Homo sapiens, UniProt Q9BXA7) | competitive binding panel | – | reference: vehicle | 96
DCLK2 (Homo sapiens, UniProt Q8N568) | competitive binding panel, refers to: DCAMKL2 | – | reference: vehicle | 79
PTK6 (Homo sapiens, UniProt Q13882) | competitive binding | BRK | – | 95
MAK (Homo sapiens, UniProt P20794) | competitive binding panel | – | reference: vehicle | 64
PIK3CA (Homo sapiens, UniProt P42336, H1047L) | competitive binding panel | – | reference: vehicle | 96
Aurora kinase B (AURKB, Homo sapiens, UniProt Q96GD4) | competitive binding panel | – | reference: vehicle | 0.4
MAPKAPK5 (Homo sapiens, UniProt Q8IW41) | competitive binding panel | – | reference: vehicle | 84
PIP5K1A (Homo sapiens, UniProt Q99755) | competitive binding panel | – | reference: vehicle | 9.3
STK32A (Homo sapiens, UniProt Q8WU08) | competitive binding panel, refers to: YANK1 | – | reference: vehicle | 68
RIPK2 (Homo sapiens, UniProt O43353) | competitive binding panel | – | reference: vehicle | 94
JAK3 (Homo sapiens, UniProt P52333) | competitive binding panel | JH1 catalytic domain | reference: vehicle | 5.4

Block 4 — observed: enzyme activity; mode: inhibitor; tested at: 10 µM
Target: Calcium/calmodulin-dependent protein kinase type II subunit alpha (CAMK2A, Homo sapiens, UniProt Q9UQM7)
Sequence of UniProt Q9UQM7 (whole entry, looked up): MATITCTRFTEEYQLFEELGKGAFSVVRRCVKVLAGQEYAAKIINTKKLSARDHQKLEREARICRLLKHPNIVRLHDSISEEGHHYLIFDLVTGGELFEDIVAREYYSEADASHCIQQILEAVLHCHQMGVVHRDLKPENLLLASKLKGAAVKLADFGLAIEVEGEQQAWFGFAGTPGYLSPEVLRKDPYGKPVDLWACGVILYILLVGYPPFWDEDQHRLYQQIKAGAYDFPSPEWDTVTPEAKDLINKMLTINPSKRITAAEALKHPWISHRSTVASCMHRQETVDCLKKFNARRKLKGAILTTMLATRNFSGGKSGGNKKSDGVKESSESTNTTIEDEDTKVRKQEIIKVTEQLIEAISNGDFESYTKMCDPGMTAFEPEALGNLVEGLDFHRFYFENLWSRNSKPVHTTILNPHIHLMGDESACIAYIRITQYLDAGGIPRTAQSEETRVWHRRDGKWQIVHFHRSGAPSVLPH
SMILES | inhibition
Oc1cc2c(cc1O)[C@@H]1c3ccc(O)c(O)c3OC[C@]1(O)C2 | 8%
C[C@]12C[C@@H](O)[C@@H]3C[C@@]1(O[C@@H]1O[C@H](CO)[C@@H](O)[C@H](O)[C@H]1O)[C@]3(COC(=O)c1ccccc1)C(=O)O2 | -2%
COc1ccc(NC(=O)c2ccc(C(=N)N(C)C)cc2)c(C(=O)Nc2ccc(Cl)cn2)c1 | 2%
Clc1ccc(CCC(Cn2ccnc2)Sc2c(Cl)cccc2Cl)cc1 (stereo not shown) | -7%
CO[C@H]1C[C@@H]2CC[C@@H](C)[C@@](O)(O2)C(=O)C(=O)N2CCCC[C@H]2C(=O)O[C@H]([C@H](C)C[C@@H]2CC[C@@H](O)[C@H](OC)C2)CC(=O)[C@H](C)/C=C(\C)[C@@H](O)[C@@H](OC)C(=O)[C@H](C)C[C@H](C)/C=C/C=C/C=C/1C | 6%
CO[C@@]1(NC(=O)[C@H](C(=O)O)c2ccc(O)cc2)C(=O)N2C(C(=O)O)=C(CSc3nnnn3C)CO[C@@H]21 | -9%
C[C@]12CCC(=O)C=C1CC[C@@H]1[C@@H]2[C@@H](O)C[C@@]2(C)[C@H]1CC[C@]2(O)C(=O)COC(=O)CCC(=O)O | -19%
OC[C@H]1O[C@@](CO)(O[C@H]2O[C@H](CO[C@@H]3O[C@H](CO)[C@@H](O)[C@H](O)[C@H]3O)[C@@H](O)[C@H](O)[C@H]2O)[C@@H](O)[C@@H]1O | -4%
CCOC(=O)C1=C(C)NC(C)=C(C(=O)OC)C1c1cccc([N+](=O)[O-])c1 (stereo not shown) | -16%
Oc1cc(O)cc(/C=C/c2ccc(O)c(O)c2)c1 | 56%
C/C=C(\C)C(=O)OC1c2c(ccc3ccc(=O)oc23)OC(C)(C)C1OC(=O)/C(C)=C/C (stereo not shown) | 3%
CCCc1c2oc(C(=O)O)cc(=O)c2cc2c(=O)cc(C(=O)O)n(CC)c12 | 1%
CC1=C(/C=C/C(C)=C/C=C/C(C)=C/C(=O)O)C(C)(C)CCC1 | 4%
Nc1ccncc1O | 23%
COc1cc(C=O)cc(OC)c1O | -18%
